Measured values collected from several papers.
Several values in a cell are separate wells, animals, samples, runs or records.

N[C@H](CCC(=O)N[C@H](CCC[C@H](N)C(=O)O)C(=O)O)C(=O)O gave a viability of 97.8% (HFF-1; 10 µg/mL).
CC[C@H](C)[C@H](N)C(=O)N[C@@H](CC(C)C)C(=O)NCC(=O)N[C@H](CCCNC(=N)N)C(=O)N[C@H](C(=O)N[C@@H](Cc1c[nH]c2ccccc12)C(=O)N[C@@H](CCCCN)C(=O)NCC(=O)N[C@H](C(=O)N[C@@H](CCCCN)C(=O)N[C@@H](CC(=O)O)C(=O)N[C@H](C(=O)N[C@@H](CC(C)C)C(N)=O)[C@@H](C)CC)[C@@H](C)CC)[C@@H](C)CC has a viability of ~80% (RAW264.7; MTT; 100 µM, 4 h, serum-free medium).
CC(C)(C)OC(=O)N(Cc1ccco1)C(=O)c1ccc(CN2C(=O)c3ccccc3S2(=O)=O)cc1 — result for viability: “not toxic” (RAW264.7; WST-1; up to 100 µM).
The viability of O=[N+]([O-])c1cc(-c2ccccc2)ccc1NCCCCCCN1C[C@H](O)[C@@H](O)[C@H](O)[C@H]1CO is reported as 100% (A549 expressing ACE2; WST-1; 25 µM, 3 days).
C=CCn1c(=O)n([C@@H]2O[C@H](CO)[C@@H](O)[C@H]2O)c2nc(N)[nH]c(=O)c21 gave a viability of 88.7% (HFF-1; 100 µM, 48 h).
Oc1ccc(N=Nc2ccc(-c3nc4ccccc4s3)cc2)cc1CN(Cc1ccccc1)Cc1ccccn1 gave a viability of ~70% (Neuro2a; DMEM-N2 medium; 20 µM, 48 h).
Cn1cc2cc(C(F)(F)c3nnc4ccc(-c5cnn(C6CC6)c5)nn34)c(F)cc2n1 has a viability of 94.7% and 98.6% and 95.5% (MKN-45; CCK-8; 0.0025 µM, 72 h; baseline: untreated).
The viability of CC(C)C[C@@H](NC(=O)CNC(=O)[C@@H](CCCCN)NC(=O)[C@@H](CC(C)C)NC(=O)[C@@H](CCCCN)NC(=O)[C@@H](CCCNC(=N)N)NC(=O)[C@@H](CC(C)C)NC(=O)[C@@H](CC(C)C)NC(=O)[C@@H](CCCNC(=N)N)NC(=O)[C@H](N)CCCNC(=N)N)C(=O)N[C@H](CCCCN)C(=O)N[C@H](CCCCN)C(=O)N[C@H](Cc1ccc(O)cc1)C(=O)N[C@H](CC(C)C)C(=O)N[C@H](Cc1ccc(O)cc1)C(=O)N[C@H](Cc1ccccc1)C(=O)N[C@H](CCCCN)C(=O)N[C@H](CC(C)C)C(=O)N[C@H](CCC(N)=O)C(=O)N[C@H](CC(C)C)C(=O)N[C@H](CC(C)C)C(=O)N[C@H](CCCCN)C(=O)N[C@H](CCCCN)C(N)=O is reported as ~35% (RAW264.7; MTT; 64 µM, 48 h).
O=[N+]([O-])c1cc(-c2noc(C3CCC3)n2)ccc1NCCCCCCN1C[C@H](O)[C@@H](O)[C@H](O)[C@H]1CO has a viability of 100% (A549 expressing ACE2; WST-1; 25 µM, 3 days).
CC(=O)N[C@@H]1[C@@H](O[C@H](C)C(=O)N[C@@H](C)C(=O)N[C@H](CCC(=O)O)C(N)=O)[C@H](O)[C@@H](CO)O[C@H]1O gave a viability of 83.6% (HFF-1; 100 µg/mL).
With COCCCCCCCCCN1C[C@H](O)[C@@H](O)[C@H](O)[C@H]1CO the viability was 100% (A549 expressing ACE2; WST-1; 25 µM, 3 days).
Nc1ncnc2c1ncn2[C@@H]1O[C@@H]2COP(=O)(O)O[C@H]3[C@@H](O)[C@H](n4cnc5c(=O)[nH]cnc54)O[C@@H]3COP(=O)(O)O[C@H]2[C@H]1O gave a viability of 91.7% (HFF-1; 1 µg/mL).
With [N-]=[N+]=Nc1ccc(NCCCCCCN2C[C@H](O)[C@@H](O)[C@H](O)[C@H]2CO)c([N+](=O)[O-])c1 the viability was 100% (A549 expressing ACE2; WST-1; 25 µM, 3 days).
With CC[C@H](C)[C@H](NC(=O)CNC(=O)[C@H](CCSC)NC(=O)[C@H](CO)NC(=O)[C@@H](NC(=O)[C@H](CCC(N)=O)NC(=O)[C@H](CC(C)C)NC(=O)CNC(=O)[C@@H](NC(=O)[C@H](CO)NC(=O)[C@H](CCCCN)NC(=O)[C@H](CC(C)C)NC(=O)[C@H](CCCCN)NC(=O)[C@H](CCCCN)NC(=O)[C@H](CCCCN)NC(=O)[C@@H](NC(=O)[C@H](CCCCN)NC(=O)[C@@H]1CSSC[C@H](NC(=O)[C@H](CCCCN)NC(=O)[C@@H](N)CCCCN)C(=O)N[C@@H](CCCCN)C(=O)N[C@@H](Cc2ccccc2)C(=O)N[C@@H](CC(C)C)C(=O)N1)C(C)C)C(C)C)[C@@H](C)CC)C(=O)O the viability was > 50% (amphibian and mammalian cell lines; MTT; up to 6.25 µM, 24 h).

Some of these lines once more:
With COCCCCCCCCCN1C[C@H](O)[C@@H](O)[C@H](O)[C@H]1CO the viability was 100% (A549 expressing ACE2; WST-1; 25 µM, 3 days).
